{"data": "Results pooled from the literature", "cell line": "HepG2", "note": "Compare with care: the assays were run in different laboratories. ± gives the spread as reported."}
{"Compound": "CN1CCN(S(=O)(=O)c2ccc(-c3ccc4nncc(Nc5ccc(OCc6cccc(F)c6)c(Cl)c5)c4c3)cc2)CC1", "assay": "cytotoxicity, MTT", "conditions": "48 h", "endpoint": "TC50", "result": "> 15 µM"}
{"Compound": "CCc1ccc(OCCc2cccc(F)c2)c(C(N)=O)c1", "conditions": "3 (unit not given), glucose medium", "endpoint": "CC50", "result": "26 ± 0.47 µM"}
{"Compound": "N.N.[Cl][Pt][Cl]", "conditions": "maximum tested", "endpoint": "micronucleated cells", "result": "1.7%"}
{"Compound": "Cc1cscc1-c1ccc(OCCc2cc(F)cc(F)c2)c(C(N)=O)c1", "conditions": "3 (unit not given)", "scale": "relative to: CC50 glucose over CC50 galactose", "endpoint": "selectivity ratio", "result": "< 1"}
{"Compound": "O=S(=O)(c1ccc(-c2ccc3nccc(Nc4ccccc4)c3c2)cc1)N1CCOCC1", "assay": "cytotoxicity, MTT", "conditions": "48 h", "endpoint": "TC50", "result": "> 20 µM"}
{"Compound": "O=S(=O)(c1ccc(-c2ccc3c(Nc4ccc(OCc5ccccc5)c(Cl)c4)cnnc3c2)cc1)N1CCOCC1", "assay": "cytotoxicity, MTT", "conditions": "48 h", "endpoint": "TC50", "result": "> 11 µM"}
{"Compound": "Cc1ccc(N)cc1N", "conditions": "maximum tested, 24 (unit not given)", "scale": "relative to: vehicle", "endpoint": "micronuclei fold increase", "result": "0.7 fold"}
{"Compound": "O=S(=O)(c1ccc(-c2ccc3nccc(Nc4nnc(C5CC5)s4)c3c2)cc1)N1CCOCC1", "assay": "cytotoxicity, MTT", "conditions": "48 h", "endpoint": "TC50", "result": "> 20 µM"}
{"Compound": "Cc1ccc(OCCc2cc(F)cc(F)c2)c(C(=O)NCC2CC2)c1", "test system": "galactose medium", "conditions": "3 (unit not given)", "endpoint": "CC50", "result": "19 ± 6.8 µM"}
{"Compound": "O=S(=O)(c1ccc(-c2ccc3nccc(Nc4ccc(OCc5cccc(F)c5)cc4)c3c2)cc1)N1CCOCC1", "assay": "cytotoxicity, MTT", "conditions": "48 h", "endpoint": "TC50", "result": "> 5 µM"}
{"Compound": "CC(=O)c1ccc(OCCc2cccc(F)c2)c(C(N)=O)c1", "test system": "galactose medium", "conditions": "3 (unit not given)", "endpoint": "CC50", "result": "> 100 µM"}
{"Compound": "Fc1cccc(COc2ccc(Nc3nncc4ccc(-c5cccc(N6CCOCC6)c5)cc34)cc2Cl)c1", "assay": "cytotoxicity, MTT", "conditions": "48 h", "endpoint": "TC50", "result": "> 15 µM"}
{"Compound": "[Cl][Cd][Cl]", "conditions": "maximum tested", "endpoint": "micronucleated cells", "result": "1.7%"}
{"Compound": "NC(=O)c1cc(-c2cccs2)ccc1OCCc1cccc(F)c1", "conditions": "3 (unit not given)", "scale": "relative to: CC50 glucose over CC50 galactose", "endpoint": "selectivity ratio", "result": 1}
{"Compound": "O=S(=O)(c1ccc(-c2ccc3nccc(Nc4ccnnc4)c3c2)cc1)N1CCOCC1", "assay": "cytotoxicity, MTT", "conditions": "48 h", "endpoint": "TC50", "result": "> 20 µM"}
{"Compound": "Fc1cccc(COc2ccc(Nc3nccc4cc(-c5cccc(N6CCOCC6)c5)ccc34)cc2Cl)c1", "assay": "cytotoxicity, MTT", "conditions": "48 h", "endpoint": "TC50", "result": "> 15 µM"}
{"Compound": "O=c1ccc2ccccc2o1", "assay": "cell membrane permeability", "conditions": "concentration not given, 6 h, necrosis and apoptosis panel", "endpoint": "chance response", "result": "0.17%"}
{"Compound": "NC(=O)c1cc(-c2ccsc2)ccc1OCCc1cccc(F)c1", "conditions": "3 (unit not given)", "scale": "relative to: CC50 glucose over CC50 galactose", "endpoint": "selectivity ratio", "result": 1}
{"Compound": "O=S(=O)(c1ccc(-c2ccc3nccc(Nc4ncc(Cl)cn4)c3c2)cc1)N1CCOCC1", "assay": "cytotoxicity, MTT", "conditions": "48 h", "endpoint": "TC50", "result": "> 20 µM"}
{"Compound": "O=S(=O)(c1ccc(-c2ccc3nncc(Nc4ccc(OCc5ccccc5)c(Cl)c4)c3c2)cc1)N1CCOCC1", "assay": "cytotoxicity, MTT", "conditions": "48 h", "endpoint": "TC50", "result": "> 15 µM"}
{"note": "Excerpt of the above:"}
{"Compound": "O=S(=O)(c1ccc(-c2ccc3nccc(Nc4ccc(OCc5cccc(F)c5)cc4)c3c2)cc1)N1CCOCC1", "assay": "cytotoxicity, MTT", "conditions": "48 h", "endpoint": "TC50", "result": "> 5 µM"}
{"Compound": "O=S(=O)(c1ccc(-c2ccc3c(Nc4ccc(OCc5ccccc5)c(Cl)c4)cnnc3c2)cc1)N1CCOCC1", "assay": "cytotoxicity, MTT", "conditions": "48 h", "endpoint": "TC50", "result": "> 11 µM"}
